Measurements of several laboratories.
Lines come from different studies, so protocols differ.
Chain of UniProt P42336 (whole entry, unmodified, looked up): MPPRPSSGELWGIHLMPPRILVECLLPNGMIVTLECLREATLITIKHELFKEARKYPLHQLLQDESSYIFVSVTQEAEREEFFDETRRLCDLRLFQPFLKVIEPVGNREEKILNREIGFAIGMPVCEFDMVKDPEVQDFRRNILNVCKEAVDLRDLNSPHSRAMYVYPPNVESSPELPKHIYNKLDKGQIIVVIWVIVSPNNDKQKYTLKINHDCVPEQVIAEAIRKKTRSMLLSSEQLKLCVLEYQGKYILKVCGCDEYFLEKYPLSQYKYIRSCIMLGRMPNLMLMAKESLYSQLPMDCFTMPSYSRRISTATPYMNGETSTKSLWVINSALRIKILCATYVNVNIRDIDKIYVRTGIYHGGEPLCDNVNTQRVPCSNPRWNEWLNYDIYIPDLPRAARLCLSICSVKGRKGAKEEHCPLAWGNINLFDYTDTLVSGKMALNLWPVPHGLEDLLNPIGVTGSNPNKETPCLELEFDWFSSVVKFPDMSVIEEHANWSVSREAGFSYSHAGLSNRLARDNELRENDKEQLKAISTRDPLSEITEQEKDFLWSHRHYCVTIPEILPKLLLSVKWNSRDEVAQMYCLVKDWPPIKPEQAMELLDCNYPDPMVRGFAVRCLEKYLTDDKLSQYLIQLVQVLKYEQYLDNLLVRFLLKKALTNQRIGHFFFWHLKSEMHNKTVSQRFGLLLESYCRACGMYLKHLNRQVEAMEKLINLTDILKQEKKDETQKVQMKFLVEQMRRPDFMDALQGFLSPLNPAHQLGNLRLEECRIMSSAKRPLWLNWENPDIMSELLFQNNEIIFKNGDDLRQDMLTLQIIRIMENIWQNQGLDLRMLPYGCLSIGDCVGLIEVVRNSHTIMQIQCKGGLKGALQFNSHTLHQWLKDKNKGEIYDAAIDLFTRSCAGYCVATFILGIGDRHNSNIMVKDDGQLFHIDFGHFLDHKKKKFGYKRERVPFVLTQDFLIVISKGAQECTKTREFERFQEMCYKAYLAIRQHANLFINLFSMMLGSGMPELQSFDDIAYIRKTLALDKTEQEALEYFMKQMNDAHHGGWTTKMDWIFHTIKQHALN
Chain of UniProt P08913 (whole entry, looked up): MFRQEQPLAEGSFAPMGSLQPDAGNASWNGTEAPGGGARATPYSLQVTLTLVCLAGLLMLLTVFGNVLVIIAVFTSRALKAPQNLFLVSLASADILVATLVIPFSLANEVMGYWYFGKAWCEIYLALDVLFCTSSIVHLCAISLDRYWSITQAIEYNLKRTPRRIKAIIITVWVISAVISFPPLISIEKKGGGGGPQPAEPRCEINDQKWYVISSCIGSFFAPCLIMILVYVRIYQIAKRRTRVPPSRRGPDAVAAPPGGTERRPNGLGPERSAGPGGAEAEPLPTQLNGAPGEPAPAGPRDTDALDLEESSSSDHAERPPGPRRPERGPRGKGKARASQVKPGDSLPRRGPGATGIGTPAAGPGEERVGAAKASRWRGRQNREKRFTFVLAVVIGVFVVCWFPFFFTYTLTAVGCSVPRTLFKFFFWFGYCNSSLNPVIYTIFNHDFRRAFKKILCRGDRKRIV
Chain of UniProt Q00535 (whole entry, looked up): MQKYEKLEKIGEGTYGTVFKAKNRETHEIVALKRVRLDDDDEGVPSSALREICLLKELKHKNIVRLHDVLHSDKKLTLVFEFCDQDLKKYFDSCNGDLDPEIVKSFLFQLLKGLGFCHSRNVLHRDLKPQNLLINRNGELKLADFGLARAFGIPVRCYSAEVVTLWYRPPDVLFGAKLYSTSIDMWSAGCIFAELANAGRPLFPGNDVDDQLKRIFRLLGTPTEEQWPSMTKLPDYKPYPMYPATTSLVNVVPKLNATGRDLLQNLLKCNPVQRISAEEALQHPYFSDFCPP
Chain of UniProt Q9H4A3 (whole entry, looked up): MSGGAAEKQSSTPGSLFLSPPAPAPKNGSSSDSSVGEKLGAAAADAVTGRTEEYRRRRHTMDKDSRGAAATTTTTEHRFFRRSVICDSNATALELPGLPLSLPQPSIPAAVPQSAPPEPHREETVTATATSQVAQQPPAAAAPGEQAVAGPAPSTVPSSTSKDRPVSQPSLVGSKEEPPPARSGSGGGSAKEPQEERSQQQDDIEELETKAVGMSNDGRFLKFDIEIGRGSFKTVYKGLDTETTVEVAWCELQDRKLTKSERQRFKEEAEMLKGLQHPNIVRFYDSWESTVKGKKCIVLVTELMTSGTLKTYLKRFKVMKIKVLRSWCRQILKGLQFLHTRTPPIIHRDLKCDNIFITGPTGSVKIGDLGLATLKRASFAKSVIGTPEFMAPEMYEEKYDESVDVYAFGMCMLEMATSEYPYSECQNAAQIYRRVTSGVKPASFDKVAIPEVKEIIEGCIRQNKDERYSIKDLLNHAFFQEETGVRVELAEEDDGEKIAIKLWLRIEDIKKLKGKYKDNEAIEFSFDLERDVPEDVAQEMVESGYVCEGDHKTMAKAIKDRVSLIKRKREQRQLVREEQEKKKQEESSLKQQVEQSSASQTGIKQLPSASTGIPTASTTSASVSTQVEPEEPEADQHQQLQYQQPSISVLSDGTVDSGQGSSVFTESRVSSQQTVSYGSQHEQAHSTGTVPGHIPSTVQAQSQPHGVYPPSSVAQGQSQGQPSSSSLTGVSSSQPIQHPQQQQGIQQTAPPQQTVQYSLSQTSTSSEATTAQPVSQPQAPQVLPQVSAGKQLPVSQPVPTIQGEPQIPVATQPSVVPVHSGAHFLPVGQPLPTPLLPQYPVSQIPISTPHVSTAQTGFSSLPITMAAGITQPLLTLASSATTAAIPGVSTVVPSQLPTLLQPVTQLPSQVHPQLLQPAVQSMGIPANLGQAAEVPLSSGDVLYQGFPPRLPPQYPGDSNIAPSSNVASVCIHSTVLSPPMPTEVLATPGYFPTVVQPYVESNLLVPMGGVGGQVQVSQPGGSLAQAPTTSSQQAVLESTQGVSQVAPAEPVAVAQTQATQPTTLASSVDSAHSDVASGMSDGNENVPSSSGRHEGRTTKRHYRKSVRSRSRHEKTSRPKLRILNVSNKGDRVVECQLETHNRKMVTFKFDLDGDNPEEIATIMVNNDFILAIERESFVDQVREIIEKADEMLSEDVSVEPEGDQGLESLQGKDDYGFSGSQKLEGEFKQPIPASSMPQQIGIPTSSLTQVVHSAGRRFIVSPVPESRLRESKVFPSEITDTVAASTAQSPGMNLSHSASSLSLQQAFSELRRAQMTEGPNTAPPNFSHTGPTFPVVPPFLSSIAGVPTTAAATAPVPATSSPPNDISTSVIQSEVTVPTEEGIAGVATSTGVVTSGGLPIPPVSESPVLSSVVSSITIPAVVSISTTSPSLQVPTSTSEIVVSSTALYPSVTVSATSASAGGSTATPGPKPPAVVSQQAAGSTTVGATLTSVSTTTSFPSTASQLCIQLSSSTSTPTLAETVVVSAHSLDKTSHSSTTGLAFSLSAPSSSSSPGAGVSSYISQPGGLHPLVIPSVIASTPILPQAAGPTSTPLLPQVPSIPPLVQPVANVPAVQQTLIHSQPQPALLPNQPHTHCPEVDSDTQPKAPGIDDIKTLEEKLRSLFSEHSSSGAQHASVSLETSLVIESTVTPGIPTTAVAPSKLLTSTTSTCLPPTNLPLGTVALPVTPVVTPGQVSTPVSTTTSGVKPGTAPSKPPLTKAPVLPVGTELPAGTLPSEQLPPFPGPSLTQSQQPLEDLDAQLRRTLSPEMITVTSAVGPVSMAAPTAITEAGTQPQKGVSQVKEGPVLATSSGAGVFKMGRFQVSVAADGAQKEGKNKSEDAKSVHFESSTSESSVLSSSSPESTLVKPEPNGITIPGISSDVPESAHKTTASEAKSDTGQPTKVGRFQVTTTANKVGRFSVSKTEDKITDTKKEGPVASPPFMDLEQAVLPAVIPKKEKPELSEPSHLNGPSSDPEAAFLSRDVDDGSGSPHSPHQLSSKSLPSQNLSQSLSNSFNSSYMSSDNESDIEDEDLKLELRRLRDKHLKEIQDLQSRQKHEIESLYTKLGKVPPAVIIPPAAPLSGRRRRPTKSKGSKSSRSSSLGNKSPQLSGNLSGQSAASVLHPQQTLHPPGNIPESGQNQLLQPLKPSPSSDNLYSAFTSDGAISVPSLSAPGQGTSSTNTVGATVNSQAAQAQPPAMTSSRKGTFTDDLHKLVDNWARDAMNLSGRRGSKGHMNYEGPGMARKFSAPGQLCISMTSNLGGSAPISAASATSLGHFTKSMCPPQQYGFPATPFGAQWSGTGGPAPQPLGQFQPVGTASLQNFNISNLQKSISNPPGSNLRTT
Chain of UniProt Q13557 (whole entry, looked up): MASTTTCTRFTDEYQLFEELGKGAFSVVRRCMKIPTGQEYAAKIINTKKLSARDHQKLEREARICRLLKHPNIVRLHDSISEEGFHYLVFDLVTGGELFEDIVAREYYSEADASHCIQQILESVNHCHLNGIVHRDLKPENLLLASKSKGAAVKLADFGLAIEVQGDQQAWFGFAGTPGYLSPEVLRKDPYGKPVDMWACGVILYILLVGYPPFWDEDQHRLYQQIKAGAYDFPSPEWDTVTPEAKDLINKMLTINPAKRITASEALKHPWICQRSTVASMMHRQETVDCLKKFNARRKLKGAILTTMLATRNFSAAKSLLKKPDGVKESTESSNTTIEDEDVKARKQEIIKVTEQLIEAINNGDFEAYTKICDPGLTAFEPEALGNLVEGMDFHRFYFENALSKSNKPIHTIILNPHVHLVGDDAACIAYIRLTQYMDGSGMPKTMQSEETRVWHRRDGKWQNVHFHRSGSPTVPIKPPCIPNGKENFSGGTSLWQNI
Chain of UniProt P49286 (whole entry, looked up): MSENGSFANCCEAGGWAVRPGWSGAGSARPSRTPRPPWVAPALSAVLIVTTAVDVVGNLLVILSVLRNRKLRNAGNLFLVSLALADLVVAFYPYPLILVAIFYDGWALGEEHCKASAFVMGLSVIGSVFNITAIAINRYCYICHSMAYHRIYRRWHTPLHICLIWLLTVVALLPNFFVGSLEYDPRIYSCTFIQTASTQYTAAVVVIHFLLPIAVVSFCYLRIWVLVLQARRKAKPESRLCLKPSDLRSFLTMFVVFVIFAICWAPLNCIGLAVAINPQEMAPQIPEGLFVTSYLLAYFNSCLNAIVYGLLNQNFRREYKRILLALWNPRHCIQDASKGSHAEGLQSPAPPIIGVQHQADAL

CC[C@H](C)[C@H](NC(=O)[C@H](CCC(N)=O)NC(=O)[C@@H](NC(=O)[C@H](CCSC)NC(=O)[C@H](CCCCN)NC(=O)[C@H](CO)NC(=O)[C@@H](NC(=O)[C@H](CCSC)NC(=O)[C@H](CC(C)C)NC(=O)[C@H](CC(N)=O)NC(=O)[C@@H](NC(=O)[C@@H](NC(=O)[C@H](CO)NC(=O)[C@H](CC(C)C)NC(=O)[C@H](C)NC(=O)[C@H](CCCNC(=N)N)NC(=O)[C@H](CCC(=O)O)NC(=O)[C@H](Cc1ccc(O)cc1)NC(=O)[C@H](Cc1ccccc1)NC(=O)[C@H](C)NC(=O)[C@H](CC(N)=O)NC(=O)[C@@H](N)CCCCN)[C@@H](C)CC)[C@@H](C)CC)[C@@H](C)O)C(C)C)C(=O)N[C@@H](CC(N)=O)C(=O)N[C@H](C(=O)O)C(C)C
inhibition (Cyclin-dependent kinase 5, with p25 (CDK5, Homo sapiens, UniProt Q00535); enzyme activity, inhibitor, radiometric; 10 µM): 8%

FC(F)(F)Oc1cccc(-c2cnc3ccc(-c4ccncc4)nn23)c1
activity vs control (Rock2 (Rattus norvegicus, UniProt Q62868); enzyme activity, inhibitor, radiometric; 5 µM): 91%

CN1CC(Oc2cnc(C#N)cc2-c2ccn3nc(NC(=O)C4CC4)cc3c2)C1
inhibition (HIPK2 (Homo sapiens, UniProt Q9H2X6); enzyme activity, inhibitor; 1 µM): -1%

NC/C(=C\F)COc1cccc(Cn2c(=S)[nH]c(=O)c3[nH]cnc32)c1
inhibition (ADRA2A (Homo sapiens, UniProt P08913); ligand displacement, radioligand; 10 µM): < 50%

CCCCC(=O)Nc1ccc(-c2ccc3ncn(CCC)c(=O)c3c2)cn1
remaining binding (CAMK2D (Homo sapiens, UniProt Q13557); binding, competition with immobilised ligand; 0.5 µM): 100%

Cc1cc([C@@H](C)Nc2ccccc2C(=O)O)c2nc(N3CCC(F)(F)CC3)c(C#N)c(=O)n2c1
remaining binding (FLT3 (Homo sapiens, UniProt P36888); binding, competition with immobilised ligand; 1 µM): 93%

O=C(NCCc1cccc2ccccc12)C1CCC1
Emax (MTNR1B (Homo sapiens, UniProt P49286); β-arrestin recruitment, agonist; MT2; 90 min): 20%

CNc1ncc2c(/C=C/C(=O)N3CCC(OC)CC3)nn(Cc3cccc(C(F)(F)F)c3)c2n1
remaining activity (NEK7 (Homo sapiens, UniProt Q8TDX7); enzyme activity, inhibitor, radiometric; 1 µM): 112%

C1=C/COCc2cc(ccc2OCCN2CCCC2)Nc2nccc(n2)-c2cccc(c2)COC/1
remaining binding (PIK3CA (Homo sapiens, UniProt P42336, M1043I); binding; 0.1 µM): 74%

N[C@H]1CCN(c2nccc(-c3cnn4ncccc34)n2)C1
remaining binding (SIK1 (Homo sapiens, UniProt P57059); binding; 1 µM): 100%

C=CC(=O)N1CCC(COCC(=O)N2CCN(c3nc(-c4cnc(N)nc4C(F)F)nc(N4CCOC[C@@H]4C)n3)CC2)CC1
remaining binding (YES1 (Homo sapiens, UniProt P07947); binding, competition with immobilised ligand; 1 µM): 84%

CC1=CC(O/C=C2/C(=O)OC3c4ccccc4CC23)OC1=O (racemic)
ΔTm (KAI2 (Arabidopsis thaliana, UniProt Q9SZU7); thermal stability, DSF; 100 µM): 0.3 °C

Nc1ncnc2occ(-c3ccc(NC(=O)Nc4cc(C(F)(F)F)ccc4F)cc3)c12
remaining signal (PIK3CA (Homo sapiens, UniProt P42336, I800L); cell-free assay, inhibitor; 20 µM): 44%

COc1cc(I)c2[nH]cc(CCNC(C)=O)c2c1
Emax (MTNR1A (Homo sapiens, UniProt P48039); cAMP, agonist, TR-FRET; CHO-K1; 20 min): 102%

CCCN(O)N=Nc1ccc(S(=O)(=O)Nc2onc(C)c2C)cc1
inhibition (AMY2 (Sus scrofa, UniProt P00690); enzyme activity, inhibitor; 300 µg/mL): 73.7%

COc1cc(-c2cncc3c2CN(C)Cc2cc(N4CCNCC4)ccc2-3)cc(OC)c1OC
remaining activity (WNK1 (Homo sapiens, UniProt Q9H4A3); enzyme activity, inhibitor; 1 µM): 103%

A few entries again:
COc1cc(I)c2[nH]cc(CCNC(C)=O)c2c1
Emax (MTNR1A (Homo sapiens, UniProt P48039); cAMP, agonist, TR-FRET; CHO-K1; 20 min): 102%

NC/C(=C\F)COc1cccc(Cn2c(=S)[nH]c(=O)c3[nH]cnc32)c1
inhibition (ADRA2A (Homo sapiens, UniProt P08913); ligand displacement, radioligand; 10 µM): < 50%
